Experimental data pooled from the literature.
Lines come from different studies, so protocols differ. ± gives the spread as reported.
Sample: plasma

With `COc1ccc(C[C@@H]2NC(=O)[C@H]([C@@H](C)O)NC(=O)[C@@H]3[C@@H]4CCN3C(=O)[C@@H]3Cc5cn(c6ccc(F)cc56)CCCCCCN(Cc5ccc(cc5)CCNC(=O)[C@]5(C)CCCN5C2=O)C(=O)CCC(=O)N[C@@H](C)C(=O)N[C@H](CNC(=O)CCCCC[N+](C)(C)C)C(=O)N[C@@H](Cc2cccc(c2)CNC(=O)CO4)C(=O)N3)cc1` the AUC(0-inf) was 0.259 µM·h (fasted healthy humans; oral, 10 mg single dose, with 1800 mg Labrasol, geometric mean).
For `CN(C)CCC[C@@]1(c2ccc(F)cc2)OCc2cc(C#N)ccc21`, the AUC(0-inf) was 0.209 µg·h/mL (healthy volunteers; dose not given, together with: 2D regimen).
For `Cc1cc(C(C#N)c2ccc(Cl)cc2)c(Cl)cc1NC(=O)c1cc(I)cc(I)c1O` (centres unmarked), the AUC(0-inf) was 68100 ± 19700 µg·h/mL (parasitized lambs; subcutaneous, 5 mg/kg, together with: moxidectin 0.2 mg/kg subcutaneous).
For `Oc1ccc2ccc3c4ccccc4cc4ccc1c2c43`, the AUC(0-inf) was 30.7 ± 19.6 fg BaP equivalents·h/mL (UPLC-AMS; human; oral, 100 ng of [14C]-BaP).
For `CC(C)[C@H]1C(=O)N[C@@H](CCCN=C(N)N)C(=O)NCC(=O)N[C@@H](CC(=O)O)C(=O)N[C@H](Cc2ccccc2)C(=O)N1C`, the AUC(0-inf) was 0.781 µg·h/mL (female NMRI mice; intravenous bolus, 2.5 mg/kg).
`CC[C@@]1(O)C(=O)OCc2c1cc1n(c2=O)Cc2cc3c(CN(C)C)c(O)ccc3nc2-1` has an AUC(0-inf) of 0.157 µg·h/mL (human; oral, 8 mg, patients).
For `CC[C@H](C)[C@H](NC(=O)[C@H](CC(C)C)NC(=O)[C@H](Cc1c[nH]c2ccccc12)NC(=O)[C@H](CCC(N)=O)NC(=O)[C@@H](NC(=O)[C@H](Cc1ccccc1)NC(=O)[C@H](C)NC(=O)[C@H](CCCCNC(=O)COCCOCCNC(=O)COCCOCCNC(=O)CC[C@H](NC(=O)CCCCCCCCCCCCCCCCCCC(=O)O)C(=O)O)NC(=O)[C@H](CCC(N)=O)NC(=O)[C@H](C)NC(=O)[C@@H](NC(=O)[C@H](CCCCN)NC(=O)[C@H](CC(=O)O)NC(=O)[C@H](CC(C)C)NC(=O)C(C)(C)NC(=O)[C@@H](NC(=O)[C@H](CO)NC(=O)[C@H](Cc1ccc(O)cc1)NC(=O)[C@H](CC(=O)O)NC(=O)[C@H](CO)NC(=O)[C@@H](NC(=O)[C@H](Cc1ccccc1)NC(=O)[C@@H](NC(=O)CNC(=O)[C@H](CCC(=O)O)NC(=O)C(C)(C)NC(=O)[C@@H](N)Cc1ccc(O)cc1)[C@@H](C)O)[C@@H](C)O)[C@@H](C)CC)[C@@H](C)CC)C(C)C)C(=O)N[C@@H](C)C(=O)NCC(=O)NCC(=O)N1CCC[C@H]1C(=O)N[C@@H](CO)C(=O)N[C@@H](CO)C(=O)NCC(=O)N[C@@H](C)C(=O)N1CCC[C@H]1C(=O)N1CCC[C@H]1C(=O)N1CCC[C@H]1C(=O)N[C@@H](CO)C(N)=O`, the AUC(0-inf) was 84.3 µg·h/mL (human, normal hepatic function; subcutaneous, 5 mg single dose, geometric mean).
`O=c1[nH]c(Cc2ccccn2)nc2c1cnn2C1CCOCC1` has an AUC(0-inf) of 0.0767 µM·h (male human; oral, 5 mg, single dose).
`O[C@H]1CCCN[C@@H]1CCCn1cnc2c(Cl)c(Cl)ccc21` gave an AUC(0-inf) of 0.639 µg·h/mL (human; oral, 100 mg single dose, capsule, geometric mean).
With `c1cc([C@H]2CC[C@]3(CC2)OO[C@]2(O3)C3CC4CC(C3)CC2C4)ccc1OCCN1CCOCC1` the AUC(0-inf) was 8.08 µg·h/mL (human; oral, 800 mg, single dose, fasted).
The AUC(0-inf) of `C[C@H]1O[C@@H](O[C@H]2[C@@H](O)C[C@H](O[C@H]3[C@@H](O)C[C@H](O[C@H]4CC[C@@]5(C)[C@H](CC[C@@H]6[C@@H]5C[C@@H](O)[C@]5(C)[C@@H](C7=CC(=O)OC7)CC[C@]65O)C4)O[C@@H]3C)O[C@@H]2C)C[C@H](O)[C@@H]1O` is reported as 0.0375 µg·h/mL (healthy volunteers; dose not given, together with: 2D regimen).

A few entries again:
With `c1cc([C@H]2CC[C@]3(CC2)OO[C@]2(O3)C3CC4CC(C3)CC2C4)ccc1OCCN1CCOCC1` the AUC(0-inf) was 8.08 µg·h/mL (human; oral, 800 mg, single dose, fasted).
